Results gathered from unrelated publications.
Each numbered part is a random draw from the data of one study; scales do not carry over between parts. Positions count from the first letter of the parent shown.
Chain of UniProt Q8WVN8 (whole entry, looked up): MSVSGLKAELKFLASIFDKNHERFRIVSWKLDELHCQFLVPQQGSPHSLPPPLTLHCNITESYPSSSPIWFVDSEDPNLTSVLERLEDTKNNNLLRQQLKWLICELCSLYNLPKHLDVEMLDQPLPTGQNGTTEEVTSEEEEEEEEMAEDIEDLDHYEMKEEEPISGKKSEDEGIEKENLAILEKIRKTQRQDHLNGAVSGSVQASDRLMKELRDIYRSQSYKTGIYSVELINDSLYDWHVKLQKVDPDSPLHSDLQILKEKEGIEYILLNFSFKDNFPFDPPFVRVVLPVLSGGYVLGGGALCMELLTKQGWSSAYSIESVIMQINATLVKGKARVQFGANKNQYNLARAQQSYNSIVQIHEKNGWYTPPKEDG
Chain of UniProt P61088 (whole entry, looked up): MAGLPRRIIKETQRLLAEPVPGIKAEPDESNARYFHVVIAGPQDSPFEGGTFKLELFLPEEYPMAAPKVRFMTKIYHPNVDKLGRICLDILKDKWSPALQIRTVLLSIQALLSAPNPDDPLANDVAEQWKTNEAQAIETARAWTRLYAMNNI
Chain of UniProt P60604 (whole entry, looked up): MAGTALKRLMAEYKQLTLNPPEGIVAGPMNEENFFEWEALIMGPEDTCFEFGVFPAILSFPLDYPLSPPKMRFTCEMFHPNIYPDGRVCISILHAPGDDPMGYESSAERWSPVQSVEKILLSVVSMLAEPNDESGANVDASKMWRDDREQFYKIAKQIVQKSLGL
Chain of UniProt Q5VVX9 (whole entry, looked up): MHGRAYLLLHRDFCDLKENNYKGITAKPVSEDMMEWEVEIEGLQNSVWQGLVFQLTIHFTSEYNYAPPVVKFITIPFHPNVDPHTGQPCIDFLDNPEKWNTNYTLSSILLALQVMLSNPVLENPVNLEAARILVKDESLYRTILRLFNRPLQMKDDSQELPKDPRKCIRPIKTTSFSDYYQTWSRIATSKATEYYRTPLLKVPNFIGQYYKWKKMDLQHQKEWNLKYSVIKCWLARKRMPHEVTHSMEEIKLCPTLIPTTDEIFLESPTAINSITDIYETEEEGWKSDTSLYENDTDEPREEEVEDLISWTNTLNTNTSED
Chain of UniProt Q96LR5 (whole entry, looked up): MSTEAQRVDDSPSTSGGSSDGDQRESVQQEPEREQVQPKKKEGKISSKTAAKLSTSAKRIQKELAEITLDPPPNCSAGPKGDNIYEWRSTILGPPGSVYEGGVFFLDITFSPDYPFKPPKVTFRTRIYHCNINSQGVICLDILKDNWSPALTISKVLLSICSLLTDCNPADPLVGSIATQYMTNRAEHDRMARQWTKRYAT
Chain of UniProt O14933 (whole entry, looked up): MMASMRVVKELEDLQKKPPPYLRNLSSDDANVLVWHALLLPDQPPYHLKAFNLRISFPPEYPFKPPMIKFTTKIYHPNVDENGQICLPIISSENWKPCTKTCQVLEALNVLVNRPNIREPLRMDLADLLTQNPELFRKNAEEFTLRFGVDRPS

Set 1
Sequence: B1 (RNF7 RING domain)
Technique: yeast two-hybrid
Matrix: yeast
Setting: mostly zero background
Reference: not given
Reading: higher = stronger interaction
B1: RNF7 RING domain (UniProt Q9UBF6); chain AICRVQVMDACLRCQAENKQEDCVVVWGECNHSFHNCCMSLWVKQNNRCPLCQQDWVVQRIGK
target	lacZ reporter activity
UBE2L6 UBC core domain (UniProt O14933)	0
UBE2E2 UBC core domain (UniProt Q96LR5)	0
UBE2G2 UBC core domain (UniProt P60604)	0
UBE2U UBC core domain (UniProt Q5VVX9)	0
UBE2Q2 UBC core domain (UniProt Q8WVN8)	0
UBE2N UBC core domain (UniProt P61088)	0

Set 2
Target: Myc proto-oncogene protein, bHLH-zipper, MAX partner unstated (MYC, Homo sapiens, UniProt P01106, residues 368-449)
Chain of UniProt P01106 (368-449, looked up): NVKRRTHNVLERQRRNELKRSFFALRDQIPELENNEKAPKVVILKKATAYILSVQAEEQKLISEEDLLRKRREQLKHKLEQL
Technique: protein-binding microarray
Form: double-stranded DNA, one strand shown
Matrix: in vitro
Tested at: not given
Setting: k-mer, scored over probes, only values ≥0.25
Reading: higher = stronger binding
Oligonucleotide	E-score
ACACCACA	0.261
CACGTTCC	0.353
GAACACGC	0.397
ATACACGC	0.406
CACACCTG	0.266
CGCATGAG	0.355
CAACGTGG	0.442
AATCGTGG	0.259

Set 3
Target: RNA binding protein fox-1 homolog 2, RRM domain, GST-SBP tag (RBFOX2, Homo sapiens, UniProt O43251-10, residues 100-194)
Technique: RNA Bind-n-Seq
Form: RNA
Matrix: in vitro
Tested at: 365 nM
Setting: natural RNA segment, single round, ends assumed
Reference: no-protein control
Reading: higher = stronger binding
Shared flanks, not repeated: GGGAGUUCUACAGUCCGACGAUC … UGGAAUUCUCGGGUGCCAA
Target sequence (chain): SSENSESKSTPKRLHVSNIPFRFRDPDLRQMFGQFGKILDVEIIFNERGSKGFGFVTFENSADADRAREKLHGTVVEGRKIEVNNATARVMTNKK
Oligonucleotide	RBNS enrichment (R)
CUGUGUAGAUGAUUAACUGACUUUUUAAUAUUUUGUAAAUAAAUCGGAUUCCUUGUGUCCUUUGUGCUAGUGUAACCCGGGACUGGAAUGUAAAGUGAAGUUCGGAGCUC	1.22
CCCAAUUAUCUUCCAAGAUAGGAGAUAUUUCCCAUCCCCUUCCUUUGUAAAUAUCUCAUCUCCCACUGGAGAGCCCAGGAGCCUAUUCCUGGCAUGGAUGUUCUGUCCAC	0.38
GCGUGGGCCAGGCCGUAGGGGUGGCCGGGCCAGGGGUGGGCAAGGCCCUCGACCUAACAUCUGUGGCAUCUGCGGGAAGAGCUUUGGACGAGGCUCGACCCUGAUCCAGC	0.751
UGUGGGAUGAGAUAACACCACAUCCUGCAGCUGUGAAGGGGGAUGGACAAGGGACGACGGCCGACGGCAGAGCAUCAGCAGCCGACACAUAGUUCGGGUCGGGGCCUUGG	0.461
UAUGAUAUAUUUCAGCUUAAAGUUAUGUUAUUAUAUGUGGAAGUGUAAAUAUAGAUUUGGUGUUUUGAAUCUUGAGUUUUAGUGUUUAUUGUGUUUCUGGUUUCUGAUUU	2.4
CAUGCUCUGAGUCAGAACACACCAACGCUCUGCUGUGGCUCCUAGGGAAGCAUUCAUGGUCCUCUGUUAUCAGCAGGGGUUUAUGUCACUUGCUGUCCGGUUUCCUAGGG	0.326
UCUAGUGGGAGUUCUAUAUAAAUGUUUCUUUGGUAUUCUUCAGCCUGUGAUUUAAAGUUUUACAAAAAGCAGAGCUUUUUCCUAAGUUACUUUUCAGUUAGGUAACUGUG	0.562
CUCUGAGAGCCCUCGCGUCCCAGGCCCCAGCCAGGGGGCCGGCCUUGUCCCGCCUCAUCCACAGAAAGGGAGGAUGGGCGAUGACAGUUGUUUCUAUGCCUUCUGACCCA	0.627

Further values, each from its own experiment
Parent: viral docking peptide; KGVKRKLFAEDSS; partner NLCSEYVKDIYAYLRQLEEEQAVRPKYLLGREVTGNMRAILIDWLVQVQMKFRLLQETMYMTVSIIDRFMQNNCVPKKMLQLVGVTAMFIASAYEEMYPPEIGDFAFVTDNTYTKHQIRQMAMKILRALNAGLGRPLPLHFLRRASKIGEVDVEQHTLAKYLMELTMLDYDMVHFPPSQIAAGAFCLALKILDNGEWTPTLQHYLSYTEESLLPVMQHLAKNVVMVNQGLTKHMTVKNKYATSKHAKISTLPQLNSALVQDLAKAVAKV
Substitution	target	assay	system	setting	scale	endpoint	value
A9V	CCNB1, cyclin fold, Cln2 fusion (human)	yeast growth competition, sequencing	yeast	strong parent motif	reference: not given, higher = stronger binding	normalised enrichment score	2.16
